{"data": "Results pooled from the literature", "note": "Each numbered part is a random draw from the data of one study; scales do not carry over between parts. Changes are numbered by the printed parent chain."}
{"data": "Study 1", "target": "CCNE2, cyclin fold, Cln2 fusion (human)", "method": "yeast growth competition, sequencing", "sample": "yeast", "setting": "strong parent motif", "relative to": "not given", "direction": "higher = stronger binding", "parent": "SCAPER docking peptide (human); SNARRSLNFGGST; partner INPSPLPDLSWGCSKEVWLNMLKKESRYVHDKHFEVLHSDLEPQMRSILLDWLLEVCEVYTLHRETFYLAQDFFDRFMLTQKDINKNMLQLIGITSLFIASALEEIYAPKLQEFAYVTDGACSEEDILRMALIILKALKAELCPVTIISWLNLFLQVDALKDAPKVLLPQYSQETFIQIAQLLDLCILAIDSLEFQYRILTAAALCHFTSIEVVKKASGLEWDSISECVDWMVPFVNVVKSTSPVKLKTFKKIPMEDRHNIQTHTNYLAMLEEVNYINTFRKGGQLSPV"}
{"Change": "R4L", "normalised enrichment score": -0.224}
{"Change": "N8Y", "normalised enrichment score": 0.75}
{"Change": "A3E", "normalised enrichment score": 0.629}
{"Change": "R4G", "normalised enrichment score": 0.117}
{"Change": "T13I", "normalised enrichment score": 0.992}
{"Change": "G11I", "normalised enrichment score": 0.895}
{"Change": "A3N", "normalised enrichment score": 0.457}
{"Change": "G11T", "normalised enrichment score": 1.91}
{"Change": "N2L", "normalised enrichment score": 0.657}
{"Change": "G11W", "normalised enrichment score": 1.26}
{"Change": "N8Q", "normalised enrichment score": 1.26}
{"Change": "T13F", "normalised enrichment score": 0.817}
{"Change": "L7G", "normalised enrichment score": 0.366}
{"Change": "R4H", "normalised enrichment score": 0.475}
{"data": "Study 2", "target": "ABI1, truncated, D143A, DHFR fusion (Arabidopsis thaliana)", "method": "DHFR PCA, deep sequencing", "sample": "yeast", "setting": "methotrexate growth selection, single substitutions", "added": "(+)-ABA 2500 µM", "relative to": "wild-type fitted maximum", "direction": "higher = stronger binding", "parent": "PYL1, truncated, DHFR fusion (Arabidopsis thaliana); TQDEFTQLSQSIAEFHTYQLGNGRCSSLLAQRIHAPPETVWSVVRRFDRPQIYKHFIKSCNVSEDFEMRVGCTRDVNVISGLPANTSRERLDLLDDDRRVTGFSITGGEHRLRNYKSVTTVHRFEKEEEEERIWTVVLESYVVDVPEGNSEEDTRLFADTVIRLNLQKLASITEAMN"}
{"Change": "R123V", "relative binding score [%]": 103}
{"Change": "R163W", "relative binding score [%]": 58.7}
{"Change": "Q51G", "relative binding score [%]": 88.6}
{"Change": "L166H", "relative binding score [%]": 86.5}
{"Change": "V118H", "relative binding score [%]": 111}
{"Change": "H34S", "relative binding score [%]": 99.6}
{"Change": "V43R", "relative binding score [%]": 82.3}
{"Change": "F15Q", "relative binding score [%]": 84.1}
{"Change": "G107E", "relative binding score [%]": 98.4}
{"Change": "N149P", "relative binding score [%]": 38.7}
{"Change": "R90K", "relative binding score [%]": 98.4}
{"Change": "P50Y", "relative binding score [%]": -12.6}
{"Change": "R32G", "relative binding score [%]": 77.1}
{"Change": "Q10N", "relative binding score [%]": 106}
{"data": "Study 3", "target": "Interferon regulatory factor 7, full length, phosphomimetic (IRF7, Homo sapiens, UniProt Q92985, residues 1-503, S471D/S472D/S475D/S476D/S477D/S483D/S484D/S487D)", "method": "protein-binding microarray", "molecule type": "double-stranded DNA, one strand shown", "sample": "in vitro", "concentration": "2200 nM top", "setting": "60-bp whole probe", "added": "salmon DNA 0.4 mg/ml", "relative to": "random background probes", "direction": "higher = stronger binding", "shared flanks, not repeated": "GCCTAGCAC … GTCTTGATTCGCTTGACGCTGCTG", "Target sequence (chain)": "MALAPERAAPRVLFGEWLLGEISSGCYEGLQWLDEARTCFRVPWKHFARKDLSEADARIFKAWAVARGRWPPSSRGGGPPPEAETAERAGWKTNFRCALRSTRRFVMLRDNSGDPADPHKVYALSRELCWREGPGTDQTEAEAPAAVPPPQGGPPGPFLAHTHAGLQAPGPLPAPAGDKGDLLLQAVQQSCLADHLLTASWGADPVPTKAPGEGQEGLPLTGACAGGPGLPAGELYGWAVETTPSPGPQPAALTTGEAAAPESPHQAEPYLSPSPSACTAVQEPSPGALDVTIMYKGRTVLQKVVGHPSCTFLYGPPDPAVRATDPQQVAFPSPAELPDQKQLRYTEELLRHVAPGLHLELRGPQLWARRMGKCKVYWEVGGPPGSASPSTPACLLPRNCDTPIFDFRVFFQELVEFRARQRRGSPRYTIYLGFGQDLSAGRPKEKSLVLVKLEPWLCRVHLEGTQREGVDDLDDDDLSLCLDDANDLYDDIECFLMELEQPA"}
{"Oligonucleotide": "GATGGTATCCTACTGCTGACGTGCTAG", "fitted relative affinity [z-score]": 0.542}
{"Oligonucleotide": "GACGGTATCGACACTGAGGACGTGCTA", "fitted relative affinity [z-score]": -0.147}
{"Oligonucleotide": "ACCACTCTTGCTTTTTAGATGTGCTAG", "fitted relative affinity [z-score]": 1.75}
{"Oligonucleotide": "GACGGTTTCGACTATCGGGAAGTGCTA", "fitted relative affinity [z-score]": 3.17}
{"Oligonucleotide": "GACGGACTGCTTTTCCTGCCGTGCTAG", "fitted relative affinity [z-score]": 0.538}
{"Oligonucleotide": "TTTGGTTTCGGACTGGGTTAGTGCTAG", "fitted relative affinity [z-score]": 4.97}
{"Oligonucleotide": "TCAACTTTCTATCTCTGACTGTGCTAG", "fitted relative affinity [z-score]": 4.36}
{"Oligonucleotide": "GACGGACTGCTTCTCCTGATGTGCTAG", "fitted relative affinity [z-score]": 0.331}
{"Oligonucleotide": "CACGATCTCAGTTTCGAGACGTGCTAG", "fitted relative affinity [z-score]": 3.62}
{"Oligonucleotide": "GGTCAGTCAGGTCACTTCTGGTGCTAG", "fitted relative affinity [z-score]": -0.528}
{"Oligonucleotide": "TTAGGTATCGGGTATTGGTTAGTGCTA", "fitted relative affinity [z-score]": 0.596}
{"Oligonucleotide": "CGCCCACTCATGCCTCTTAAGGTGCTA", "fitted relative affinity [z-score]": 0.658}
{"Oligonucleotide": "GACGGTATCCTTTACCTGACGTGCTAG", "fitted relative affinity [z-score]": 0.661}
{"Oligonucleotide": "GACGCTTTCCTTATCCTGACGTGCTAG", "fitted relative affinity [z-score]": 3.64}
{"Oligonucleotide": "GACCATTTCAGTTTCGAGACGTGCTAG", "fitted relative affinity [z-score]": 5.06}
{"Oligonucleotide": "GACGAACTGGGGGATCGAGACGTGCTA", "fitted relative affinity [z-score]": 0.502}
{"Oligonucleotide": "TTAGGACGGCTTATCCTTTAGTGCTAG", "fitted relative affinity [z-score]": -0.128}
{"data": "Further values, each from its own experiment"}
{"Substance": "PhoQ, residues 284 288 289 292 302 303 SSTMSV", "target": "PhoP, residues 12 14 15 18 19 STWGI (Escherichia coli, UniProt P23836)", "assay": "Sort-seq, refers to: YFP reporter", "test system": "E. coli", "setting": "PhoQ-PhoP variant library, added: 10 µM Mg2+", "how to read": "relative to: high Mg2+ state, higher = stronger signaling", "measurement": "fold induction", "result": 1.21}
{"note": "A few entries again (study 2):"}
{"Change": "R163W", "relative binding score [%]": 58.7}
{"Change": "Q51G", "relative binding score [%]": 88.6}
{"Change": "L166H", "relative binding score [%]": 86.5}
{"Change": "V118H", "relative binding score [%]": 111}
{"Change": "H34S", "relative binding score [%]": 99.6}
{"Change": "V43R", "relative binding score [%]": 82.3}
{"Change": "F15Q", "relative binding score [%]": 84.1}
{"Change": "G107E", "relative binding score [%]": 98.4}
